# Assay results collected from several papers.
# Lines come from different studies, so protocols differ. Several values in a cell are separate wells, animals, samples, runs or records. ± marks the error that the study gave.
SMILES,test,test system,setting,scale,endpoint,value
CCCCCOc1ccc(-c2ccc(-c3ccc(C(=O)N[C@H]4C[C@@H](O)[C@@H](OCC[N+](C)(C)C)NC(=O)[C@@H]5[C@@H](O)[C@@H](C)CN5C(=O)[C@H]([C@@H](C)O)NC(=O)[C@H]([C@H](O)[C@@H](O)c5ccc(O)cc5)NC(=O)[C@@H]5C[C@@H](O)CN5C(=O)[C@H]([C@@H](C)O)NC4=O)cc3)cc2)cc1,,"adult ICU patients, mITT, serum","dose not given, Follow-up",,alkaline phosphatase,154 U/L
CC1(C)[C@H](C=C(Cl)Cl)[C@H]1C(=O)OCc1cccc(Oc2ccccc2)c1,refers to: CYP1A2,"human, age 6 months, recombinant human CYP1A2",0.1 µM,,enzyme contribution to clearance,0.02%
COc1ncnn2ccc(-c3cnc4nc(C)n(Cc5nnc([C@@H](C)F)o5)c4c3)c12,,human,"oral, dose not given, grade 5",,patients with vomiting,0%
NC(=O)[C@H]1CCN(c2ncnc(N)c2F)C[C@@H]1N1CCC[C@@H](Nc2cc(Cl)cc(C(F)(F)F)c2)C1=O,,B-cell malignancy patients,"oral, 20.5 mg twice daily, dose",,grade ≥3 hypocalcaemia,0%
Clc1ccc(Cl)c(-c2cc(Cl)ccc2Cl)c1,,"Sprague Dawley rat, thymus","intraperitoneal, 10 mg/kg",,organ weight,0.48 g
C=CCNc1c(O)cc2c(O)c1C[C@@H](C)C[C@H](OC)[C@H](O)[C@@H](C)/C=C(\C)[C@H](OC(N)=O)[C@@H](OC)/C=C\C=C(/C)C(=O)N2,,"unresectable or metastatic STS, GIST, other","intravenous, 225 mg/m^2",,patients with infusion site pain,33%
C[C@@H]1COCCN1c1cc([C@]2(O)C[C@H]3CC[C@@H](C2)O3)c2cnn(-c3cc[nH]n3)c2n1,,NOD-SCID tumour-bearing mice,"oral, 14 days, 3 days on 4 off weekly",,MTD,30 mg/kg
NCCOCC(=O)N1CCCC(C(=O)NCc2nc(-c3ccc(-c4ccc(F)cc4)cc3)cs2)C1 (stereo not drawn),,"Sprague-Dawley rat, male","intravenous, 1 mg/kg, 24 h",reference: dose,urinary excretion,3.2%
CO[C@H]1C[C@@H]2CC[C@@H](C)[C@@](O)(O2)C(=O)C(=O)N2CCCC[C@H]2C(=O)O[C@H]([C@H](C)C[C@@H]2CC[C@@H](OC(=O)NCCOCCOCCOCCOCCOCCOCCOCCOCCC(=O)N3CCc4cc(Cn5nc(-c6ccc7oc(N)nc7c6)c6c(N)ncnc65)ccc4C3)[C@H](OC)C2)C[C@@H](O)[C@H](C)/C=C(\C)[C@@H](O)[C@@H](OC)C(=O)[C@H](C)C[C@H](C)/C=C/C=C/C=C/1C,,patients with advanced solid tumours,"intravenous, 16 mg weekly, grade 3 or higher",,diarrhoea incidence,0%
CC(=O)c1c(C)c2cnc(Nc3ccc(C4CCN(CCS(C)(=O)=O)CC4)cn3)nc2n(C2CCCC2)c1=O,,HR+/HER2- advanced breast cancer patients,"oral, 100 mg",,patients with TRAE grade ≥3,66.7%
CC[C@H](C)[C@H](NC(=O)[C@H](Cc1ccccc1)NC(=O)[C@H](CCC(=O)O)NC(=O)[C@H](CCCNC(=N)N)NC(=O)[C@H](C)NC(=O)[C@H](C)NC(=O)[C@H](CCC(N)=O)NC(=O)[C@H](CCC(=O)O)NC(=O)[C@H](CCC(=O)O)NC(=O)[C@H](CC(C)C)NC(=O)[C@H](Cc1ccc(O)cc1)NC(=O)[C@H](CO)NC(=O)[C@H](CO)NC(=O)[C@@H](NC(=O)[C@H](CC(=O)O)NC(=O)[C@H](CO)NC(=O)[C@@H](NC(=O)[C@H](Cc1ccccc1)NC(=O)[C@@H](NC(=O)CNC(=O)[C@H](CCC(=O)O)NC(=O)[C@H](C)NC(=O)CCc1cnc[nH]1)[C@@H](C)O)[C@@H](C)O)C(C)C)C(=O)N[C@@H](C)C(=O)N[C@@H](Cc1c[nH]c2ccccc12)C(=O)N[C@@H](CC(C)C)C(=O)N[C@H](C(=O)N[C@@H](CCCNC(=N)N)C(=O)NCC(=O)N[C@@H](CCCNC(=N)N)C(=O)N[C@@H](CCCCNC(=O)COCCOCCNC(=O)COCCOCCNC(=O)CC[C@H](NC(=O)CCCCCCCCCCCCCCCCC(=O)O)C(=O)O)C(=O)NCC(=O)NCC(=O)N[C@@H](CO)C(=O)N[C@@H](CCCCNC(=O)[C@H](CCCCNC(=O)[C@H](CCCCNc1c(NCCCCCN(O)C(=O)CCC(=O)NCCCCCN(O)C(=O)CCC(=O)NCCCCCN(O)C(C)=O)c(=O)c1=O)Nc1c(NCCCCCN(O)C(=O)CCC(=O)NCCCCCN(O)C(=O)CCC(=O)NCCCCCN(O)C(C)=O)c(=O)c1=O)NC(=O)[C@H](CCCCNc1c(NCCCCCN(O)C(=O)CCC(=O)NCCCCCN(O)C(=O)CCC(=O)NCCCCCN(O)C(C)=O)c(=O)c1=O)Nc1c(NCCCCCN(O)C(=O)CCC(=O)NCCCCCN(O)C(=O)CCC(=O)NCCCCCN(O)C(C)=O)c(=O)c1=O)C(=O)O)C(C)C [zirconium-89 labelled],ex vivo gamma counting,"Sprague-Dawley rat, male, liver","intravenous, 1 nmol, 24 h",,tissue uptake,3.1 %ID/g and 3.83 %ID/g and 3.27 %ID/g and 3.6 %ID/g and 3.51 %ID/g
CC(C)C[C@H](NC(=O)[C@H](CCCCN)NC(=O)OCC1c2ccccc2-c2ccccc21)C(=O)N[C@H](C(=O)N[C@@H](Cc1ccccc1)C(=O)N[C@@H](Cc1ccccc1)C(=O)N[C@@H](CCCCN)C(=O)NCC(=O)N[C@@H](Cc1ccccc1)C(=O)N[C@@H](C)C(=O)N[C@@H](Cc1c[nH]c2ccccc12)C(=O)N[C@@H](CC(N)=O)C(=O)N[C@H](C(=O)N[C@H]1CSSC[C@@H](C(=O)N[C@@H](Cc2c[nH]cn2)C(=O)N[C@@H](CCCNC(=N)N)C(=O)N[C@@H](CCCNC(=N)N)C(=O)N[C@@H](C)C(=O)N[C@@H](CC(N)=O)C(N)=O)NC(=O)[C@H](C(C)C)NC(=O)[C@H](CCCNC(=N)N)NC(=O)[C@H](C(C)C)NC(=O)CNC(=O)[C@H](CC(N)=O)NC(=O)[C@H](CCCNC(=N)N)NC(=O)[C@H](Cc2ccc(O)cc2)NC(=O)[C@H](C(C)C)NC1=O)C(C)C)C(C)C,HPLC,mouse mammary gland homogenate,"2560 µM, 24.00 h, 37 °C, 50 mg/mL tissue",,remaining peptide,54.1% and 49.4% and 51.3%
COc1cc(N2CCC(N3CCN(C)CC3)CC2)ccc1Nc1ncnc(Nc2ccccc2S(=O)(=O)C(C)C)n1,refers to: Insomnia,Japanese patients with solid tumours,"oral, dose not given, all grades",,treatment-emergent adverse events,3 number (percent)
O[C@H]1CCCN[C@@H]1CCCn1cnc2c(Cl)c(Cl)ccc21,,healthy human,"oral, 150 mg twice daily",reference: single dose,accumulation index,2.33
COc1ccc(-c2c(-c3ccc(C#N)c(F)c3)nc(N3CCC(N)CC3)n(C)c2=O)cc1F,refers to: Abdominal pain,human patients,"oral, 60 mg, dose expansion",,serious adverse event incidence,0%
O=C(Nc1ccccc1)C1CCN(C(=O)Oc2cccnc2)CC1,refers to: Fatigue,healthy female human,"concentration not given, all doses pooled",,adverse event incidence,29%
[O-][S+]1CCc2nc(N3CCC(c4ncc(Cl)cn4)CC3)nc(NC3(CO)CCC3)c21 (stereo not drawn),"phase I trial, refers to: oral hypoaesthesia",healthy male volunteers,"dose not given, multiple rising dose, all cohorts",,subjects with adverse events,6.3%
C=CC(=O)Nc1cc(Nc2nccc(Nc3cc(Cl)c(F)cc3C(C)(C)O)n2)c(OC)cc1N1CC[C@@H](N(C)C)C1,treatment-emergent adverse events,human,"oral, 50 mg, phase I clinical trial",,incidence of blood creatine phosphokinase increased,0%
CCN1[C@@H](C(=O)NC23CCC(C(=O)O)(CC2)CC3)[C@H](c2cccc(Cl)c2F)[C@]2(C(=O)Nc3cc(Cl)ccc32)C12CCCCC2,,patients with advanced solid tumours,"oral, 100 mg",,Dizziness incidence,9.1%
CCc1ccc(CC/C=C/c2ccc3c(c2)C(=O)CC3)cc1,,"Sprague-Dawley rat, male, blood","oral, 120 mg/kg/day, 14 days",,mean platelet volume,11.4 fL
CN1CC[C@@H](c2c(O)cc(O)c3c(=O)cc(-c4ccc(C(F)(F)F)cc4Cl)oc23)[C@@H]1CO,refers to: Vomiting,AML,"oral, 100 mg, intermittent dosing",,patients with adverse event,0%
O=C(O)CCCOc1ccc(F)cc1-c1cc(-c2ccccc2C(F)(F)F)n(-c2ccccc2)n1,refers to: β-glb,"Crl:CD(SD) rats, female, serum","iv, 25 µg/kg, 14 days",,serum protein fraction,14 ± 2.3%
O=S(=O)([O-])C(F)(F)C(F)(F)C(F)(F)C(F)(F)C(F)(F)C(F)(F)C(F)(F)C(F)(F)F.[K+],"RT-qPCR, refers to: Cyp3a11","mouse, ethanol-fed, liver",dose not given,reference: efavirenz,mRNA level,increased
CC[C@H](C)CCCCC(=O)N[C@@H](CCN)C(=O)N[C@H](C(=O)N[C@@H](CCN)C(=O)N[C@H]1CCNC(=O)[C@H]([C@@H](C)O)NC(=O)[C@H](CCN)NC(=O)[C@H](CCN)NC(=O)[C@H](CC(C)C)NC(=O)[C@@H](Cc2ccccc2)NC(=O)[C@H](CCN)NC1=O)[C@@H](C)O,,"critically ill patients, 28-day survivors, plasma","dose not given, median",,AUC(0-24 h) at steady state,87.2 mg·h/L
C[C@@H]1NC(=O)[C@H](CCCCNC(=O)CO/N=C/C(=O)NCCCC[C@@H]2NC(=O)[C@@H](Cc3ccccc3)NC(=O)[C@H](CC(=O)O)NC(=O)CNC(=O)[C@H](CCCNC(=N)N)NC2=O)NC(=O)CNC(=O)[C@@H]2CCCN2C(=O)[C@H](CCCCNC(=O)CO/N=C/C(=O)NCCCC[C@@H]2NC(=O)[C@@H](Cc3ccccc3)NC(=O)[C@H](CC(=O)O)NC(=O)CNC(=O)[C@H](CCCNC(=N)N)NC2=O)NC(=O)[C@H](CCCCNC(=O)[C@H](CCCCN)NC(=O)[C@H](Cc2ccccc2)NC(=O)CNC(=O)CN2CCCNCCNCCCNCC2)NC(=O)[C@H](CCCCNC(=O)CO/N=C/C(=O)NCCCC[C@@H]2NC(=O)[C@@H](Cc3ccccc3)NC(=O)[C@H](CC(=O)O)NC(=O)CNC(=O)[C@H](CCCNC(=N)N)NC2=O)NC(=O)CNC(=O)[C@@H]2CCCN2C(=O)[C@H](CCCCNC(=O)CO/N=C/C(=O)NCCCC[C@@H]2NC(=O)[C@@H](Cc3ccccc3)NC(=O)[C@H](CC(=O)O)NC(=O)CNC(=O)[C@H](CCCNC(=N)N)NC2=O)NC1=O [copper-64 labelled],,"normal mice, muscle","intravenous, 0.74 MBq, 3 h post-injection",,tissue uptake,0.34 ± 0.05 %ID/g
C[C@]1(CO)Cc2ncn(-c3ccc(C#N)c(Cl)c3)c2C(=O)O1,,human,"10 mg, European food-effect part, fasted",,drug-related TEAEs,25%
Cn1c(-c2ccc(C(N)=O)cc2F)nnc1C(C)(C)Oc1c(F)cc(Cl)cc1F,,human,"oral, 1 mg, single ascending dose, incl. administration site",,general disorder TEAE,16.7%
Cc1ccc(F)c2cc(C(=O)N[C@@H]3CCC[C@H](N4CC[C@H](N(C)S(C)(=O)=O)C4)C3)[nH]c12,,"CD1 mouse, plasma","oral, 100 mg/kg, 4 h",,plasma concentration,2610 ng/mL
C=CC(=O)N1CC[C@H](n2nc(C#Cc3cc(OC)cc(OC)c3)c3c(N)ncnc32)C1,,"human patients, all","oral, dose not given, QD regimen, adverse drug reaction",,"decreased appetite, any grade",44.2%
C[C@@H]1OC(=O)NN=C1c1ccc(-c2ccc(F)cc2)c(C(F)(F)F)c1,"phase I trial, refers to: Ascites all grades",human patients,"dose not given, all dose groups",,patients with adverse event,20%
COc1ccnc(C(=O)N[C@H]2COC(=O)[C@H](Cc3ccccc3)[C@@H](OC(=O)C(C)C)[C@H](C)OC2=O)c1OCOC(=O)C(C)C,,"mouse, liver",,,unscheduled DNA synthesis,negative
COc1cc2c(Oc3ccc4[nH]c(C)cc4c3F)ccnc2cc1OCC1(N)CC1,,paediatric recurrent refractory sarcoma,8 mg/kg,,grade 3 Headache,0%
CC(C)CC(=O)OC[C@H]1O[C@@](C#N)(c2ccc3c(N)ncnn23)[C@H](O)[C@@H]1O,plasma protein binding,rat plasma,0.9 µM,,bound fraction,0.921
O=C(Nc1ccccc1)C1CCN(C(=O)Oc2cccnc2)CC1,adverse event reporting,healthy women,"oral, 20 mg, 7 days",,subjects with affect lability,7.1%
C[C@@H](NC(=O)N1C(=O)[C@H](Cc2ccnc(N)c2)[C@H]1C(=O)O)C1CCCCC1,,healthy Chinese adult volunteers,"continuous intravenous infusion, dose not given, 5.0 days, CTCAE 5.0, all doses",,urine leukocyte esterase positive,15%
O=[N+]([O-])NC1=NCCN1Cc1ccc(Cl)nc1,,cow whole milk,200 nM,reference: milk fat over skim milk,milk fat partition ratio,0.51
CN1CCN(S(=O)(=O)c2cc([N+](=O)[O-])ccc2N(CCOS(C)(=O)=O)CCOS(C)(=O)=O)CC1,,"NOD/SCID mouse, naive, blood","intraperitoneal, 25 mg/kg, week 1",,hemoglobin,150 g/L and 142 g/L and 202 g/L and 118 g/L
C1=Cc2nc1cc1ccc([n-]1)c(-c1ccccc1)c1nc(cc3ccc([n-]3)c2-c2ccccc2)C=C1.CC(=O)[O-].[Mn+3],LC-MS/MS,"Sprague-Dawley rat, plasma","oral gavage, dose not given, 120 min",,mean plasma concentration,48 ng/mL
COc1ccc2nc3cc(Cl)ccc3c(Nc3cc(CN4CCCC4)c(O)c(CN4CCCC4)c3)c2n1,,"mouse, blood","intraperitoneal, 14 mg/kg",,monocyte count,0.2 10⁹/L

# Repeated from above:
SMILES,test,test system,setting,scale,endpoint,value
COc1ccnc(C(=O)N[C@H]2COC(=O)[C@H](Cc3ccccc3)[C@@H](OC(=O)C(C)C)[C@H](C)OC2=O)c1OCOC(=O)C(C)C,,"mouse, liver",,,unscheduled DNA synthesis,negative
C[C@]1(CO)Cc2ncn(-c3ccc(C#N)c(Cl)c3)c2C(=O)O1,,human,"10 mg, European food-effect part, fasted",,drug-related TEAEs,25%
C[C@@H](NC(=O)N1C(=O)[C@H](Cc2ccnc(N)c2)[C@H]1C(=O)O)C1CCCCC1,,healthy Chinese adult volunteers,"continuous intravenous infusion, dose not given, 5.0 days, CTCAE 5.0, all doses",,urine leukocyte esterase positive,15%
C[C@@H]1COCCN1c1cc([C@]2(O)C[C@H]3CC[C@@H](C2)O3)c2cnn(-c3cc[nH]n3)c2n1,,NOD-SCID tumour-bearing mice,"oral, 14 days, 3 days on 4 off weekly",,MTD,30 mg/kg
